Experimental data of several laboratories.
Protocols differ between the studies behind these lines. “And” joins repeats or separate records; there may be more than shown. ± marks the error that the study gave.

| SMILES | tested on | assay | test system | conditions | scale | measurement | value |
| --- | --- | --- | --- | --- | --- | --- | --- |
| O=C(C[Se]C(=O)C12CC3CC(CC(C3)C1)C2)Nc1cccc(C(F)(F)F)c1 | NCI60 NSCLC subpanel | NCI60 five-dose screen | – | – | – | CC50 | 22.1 µM |
| CSCC[C@H](NC(=O)[C@@H](NC(=O)[C@H](CCC(N)=O)NC(=O)[C@H](CO)NC(=O)[C@@H](N)C(C)C)[C@@H](C)O)C(=O)N[C@@H](CCCNC(=N)N)C(=O)N[C@@H](CCC(N)=O)C(=O)N[C@H](C(=O)N[C@@H](C)C(=O)N[C@H](C(=O)N1CCC[C@H]1C(=O)N[C@@H](CC(C)C)C(=O)N[C@@H](CC(C)C)C(=O)N[C@@H](Cc1c[nH]c2ccccc12)C(=O)N[C@@H](Cc1ccccc1)C(=O)N[C@@H](Cc1c[nH]c2ccccc12)C(=O)N[C@H](C(=O)NCC(=O)N[C@@H](CO)C(=O)N[C@@H](CC(C)C)C(=O)NCCOCCOCCOCCOCCOCCOCCOCCOCCOCCOCCOCCOCCC(=O)N[C@@H](CS)C(N)=O)[C@@H](C)O)C(C)C)[C@@H](C)O | H1666 lung adenocarcinoma | cell binding, phage binding, item: output/input phage | – | 10 min, 37 °C | baseline: control phage | selectivity ratio | 0.84 ± 0.25 |
| O=C1NC2(CC2)COc2ncc(F)cc2[C@H]2COCCN2c2ccn3ncc1c3n2 | – | – | Sprague-Dawley rat, male, blood | oral, 20 mg/kg/day, 4 weeks, end of recovery, subacute toxicity | – | mean corpuscular haemoglobin concentration | 309 ± 14 g/L |
| C#CCN1C(=O)C(CC#C)(C(=O)OCC)Oc2ccccc21 (centres unmarked) | HEK293T | cytotoxicity, CCK-8 | – | 6.25 µM, 72 h | – | inhibition | 0.27 ± 0.56% |
| CC(C)Cc1ccc(C(C)C(=O)[Se]CC(=O)Nc2cccc(C(F)(F)F)c2)cc1 (centres unmarked) | NCI60 ovarian subpanel | cytotoxicity, inhibitor | – | five-dose | – | CC50 | 9.56 µM |
| CC1CCC2C(C)C(OC(=O)CCC(=O)N3CCC(Nc4ccc(S(=O)(=O)NC(=O)c5ccc(N6CCN(CC7=C(c8ccc(Cl)cc8)CC(C)(C)CC7)CC6)cc5Oc5cnc6[nH]ccc6c5)cc4[N+](=O)[O-])CC3)OC3OC4(C)CCC1C32OO4 (centres unmarked) | THP-1 | annexin V/PI flow cytometry, item: annexin V+/PI- | – | 3.2 µM, 24 h | – | early apoptotic cells | 61% |
| CCN(Cc1ccccc1)C(=O)CCc1nc(CN2CCN(C(=O)Cc3ccc(OC)c(OC)c3)CC2)no1 | rat DRG neurons | current clamp | – | 30 nM to 10 µM | baseline: control | action potential width | no effect |
| CC(C)[C@H](NC(=O)[C@H](CCCNC(=N)N)NC(=O)[C@@H]1CCCN1C(=O)[C@@H](NC(=O)[C@H](C)NC(=O)[C@H](Cc1ccc(O)cc1)NC(=O)[C@H](CCC(N)=O)NC(=O)[C@H](CCCCN)NC(=O)[C@H](CCCNC(=N)N)NC(=O)[C@@H]1CCCN1C(=O)[C@H](CCC(=O)O)NC(=O)[C@@H](NC(=O)[C@H](C)N)[C@@H](C)O)[C@@H](C)O)C(=O)N[C@@H](Cc1ccccc1)C(=O)N[C@@H](Cc1c[nH]c2ccccc12)C(=O)N[C@H](C(=O)N[C@@H](CC(=O)O)C(=O)N[C@@H](C)C(=O)N1CCC[C@H]1C(=O)NCC(=O)NCCOCCOCCOCCOCCOCCOCCOCCOCCOCCOCCOCCOCCC(=O)N[C@@H](CS)C(N)=O)[C@@H](C)O | H661 lung large cell carcinoma | cell binding, phage binding, item: output/input phage | – | 10 min, 37 °C | baseline: control phage | selectivity ratio | 22 ± 1.5 |
| COc1ccccc1-c1ccncc1C(=O)Nc1nnc(OCc2ccc(Cl)cc2)s1 | HCT116 BRCA2-/- | – | – | 8 µM, average of 3 runs | baseline: untreated | colony survival | 26.7% |
| O=C(C[Se]C(=O)c1ccco1)Nc1cccc(C(F)(F)F)c1 | NCI60 renal subpanel | cytotoxicity, inhibitor | – | five-dose | – | CC50 | 44.6 µM |
| CC(C)(C)C(=O)OCOP(=O)(OCOC(=O)C(C)(C)C)C1CCCN(O)C1=O (centres unmarked) | SR | – | – | – | – | CC50 | > 100 µM |
| Cc1cccc(-c2cccc(C)n2)n1.Cc1cccc(-c2cccc(C)n2)n1.F[P-](F)(F)(F)(F)F.F[P-](F)(F)(F)(F)F.[Ru+2].c1ccc2c(-c3nc4c5cccnc5c5ncccc5c4[nH]3)cccc2c1 | SK-MEL-28 | – | – | 1% O2, added: blue light 453 nm, 100 J/cm2 | baseline: dark over light EC50 | phototoxicity index | 15 |
| CC(C)CC(O)(CC(C)C)c1cn(C(=O)N2CCCC2)nn1 | mouse T-cells | SILAC proteomics, item: Arhgef2 | – | 1 nM, 6 h, single peptides, unit not given | baseline: DMSO | protein level | 1.03 and 1.13 |
| NC(=O)N/N=C/c1ccc(OCc2cccc(F)c2)cc1 | IMR-32 | – | – | 500 µg/mL, 24 h | higher = more activity | catalase activity (OD450) | 0.073 a.u. |
| O=C(C[Se]C(=O)c1ccccc1Nc1cccc(C(F)(F)F)c1)Nc1cccc(C(F)(F)F)c1 | NCI60 NSCLC subpanel | NCI60 five-dose screen | – | – | – | CC50 | 6.94 µM |
| CC(C)Cc1ccc(C(C)C(=O)[O-])cc1.CC(C)Cc1ccc(C(C)C(=O)[O-])cc1.O.[Cu+2].c1ccncc1.c1ccncc1 (centres unmarked) | PC-3 | MTT | – | 48 h | – | total growth inhibition (TGI) | > 100 µM |
| Cc1cc(Oc2nc(N3CC[C@@H](c4ccncc4)C3)ncc2F)[nH]n1 | EJ-28 | cell proliferation | bladder cancer | – | – | IC50 | > 100 µM |
| O=C(C[Se]C(=O)c1ccccc1)Nc1cccc(C(F)(F)F)c1 | NCI60 renal subpanel | cell growth | – | 10 µM, 48 h, one-dose | – | mean growth percent | -77.2% |
| CC(=O)NCSC[C@H](NC(=O)[C@@H]1CCCN1C(=O)[C@H](C)NC(=O)[C@@H](NC(=O)CNC(=O)[C@@H](NC(=O)[C@H](Cc1c[nH]c2ccccc12)NC(=O)[C@H](C)NC(=O)CNC(=O)[C@H](CO)NC(=O)[C@H](C)NC(=O)[C@@H]1CCCN1C(=O)[C@H](Cc1c[nH]c2ccccc12)NC(=O)[C@H](C)NC(=O)[C@H](C)NC(=O)[C@@H](N)Cc1ccc(O)cc1)[C@@H](C)O)[C@@H](C)O)C(=O)N[C@@H](CO)C(=O)N[C@@H](C)C(=O)NCC(=O)N[C@H](C(=O)NCCOCCOCCOCCOCCOCCOCCOCCOCCOCCOCCOCCOCCC(=O)N[C@@H](CS)C(N)=O)[C@@H](C)O | HCC78 | phage binding | – | – | baseline: targeting over control phage | selectivity ratio | 3.8 ± 0.4 |
| [Cl-].[Cl-].[Ru+2].c1ccc(-c2ccccn2)nc1.c1ccc(-c2ccccn2)nc1.c1ccc2cc3nc4c5cccnc5c5ncccc5c4nc3cc2c1 | SK-MEL-28 | cell growth or viability, resazurin | – | dark | – | EC50 | 120 µM |
| O=C(O)c1ccc(-c2nc(-c3ccccc3Cl)c3sccn23)cc1 | human CD34+ hematopoietic stem cells | megakaryocyte differentiation, flow cytometry, item: CD41a | – | 10 µM, day 7, added: TPO | baseline: control | fold change | 1.09 fold and 1.12 fold and 1.06 fold and 1.1 fold and 1.04 fold |
| CCOC(=O)C1(Cc2ccccc2)Oc2cc(F)ccc2N(Cc2ccccc2)C1=O (centres unmarked) | HEK293T | cytotoxicity, CCK-8 | – | 1.56 µM, 72 h | – | inhibition | 0.02 ± 0.34% |
| Cc1c(Cl)cccc1Nc1ccccc1C(=O)[Se]CC(=O)Nc1cccc(C(F)(F)F)c1 | NCI60 NSCLC subpanel | NCI60 five-dose screen | – | – | – | CC50 | 6.05 µM |
| CC[C@H](C)[C@H](NC(=O)[C@H](C)NC(=O)CNC(=O)[C@H](Cc1ccccc1)NC(=O)[C@H](CC(N)=O)NC(=O)[C@H](CC(N)=O)NC(=O)[C@H](CO)NC(=O)[C@H](CO)NC(=O)[C@H](Cc1c[nH]cn1)NC(=O)[C@@H](NC(=O)[C@H](CC(C)C)NC(=O)[C@H](Cc1ccccc1)NC(=O)[C@H](CC(N)=O)NC(=O)[C@H](C)NC(=O)[C@H](CC(C)C)NC(=O)[C@H](CCCNC(=N)N)NC(=O)[C@H](CCC(N)=O)NC(=O)[C@@H](NC(=O)[C@H](C)NC(=O)[C@@H]1CSSC[C@H](NC(=O)[C@@H](N)CCCCN)C(=O)N[C@@H](CC(N)=O)C(=O)N[C@@H]([C@@H](C)O)C(=O)N[C@@H](C)C(=O)N[C@@H]([C@@H](C)O)C(=O)N1)[C@@H](C)O)C(C)C)C(=O)N[C@@H](CC(C)C)C(=O)N[C@@H](CO)C(=O)N[C@@H](CO)C(=O)N[C@H](C(=O)N[C@@H](CC(N)=O)C(=O)N[C@H](C(=O)NCC(=O)N[C@@H](CO)C(=O)N[C@@H](CC(N)=O)C(=O)N[C@H](C(=O)N[C@@H](Cc1ccc(O)cc1)C(N)=O)[C@@H](C)O)C(C)C)[C@@H](C)O | RIN-m5F | ELISA | pure mitochondrial fraction | 24 h | baseline: total | internalized fraction | < 3% and < 2% |
| CC(C)C[C@H](NC(=O)[C@H](CC(=O)O)NC(=O)CNC(=O)[C@@H](N)CCCNC(=N)N)C(=O)N[C@@H](C)C(=O)N[C@H](C(=O)N[C@@H](CC(C)C)C(=O)N[C@@H](CCCNC(=N)N)C(=O)N[C@@H](CCC(N)=O)C(=O)N[C@@H](CC(C)C)C(=O)N[C@@H](C)C(=O)N[C@@H](CCC(N)=O)C(=O)N[C@@H](CCC(=O)O)C(=O)N[C@@H](CC(=O)O)C(=O)NCC(=O)N[C@H](C(=O)N[C@H](C(=O)NCC(=O)N[C@H](C(=O)N[C@@H](CCCNC(=N)N)C(=O)NCCOCCOCCOCCOCCOCCOCCOCCOCCOCCOCCOCCOCCC(=O)N[C@@H](CS)C(N)=O)C(C)C)C(C)C)C(C)C)[C@@H](C)O | HCC515 | phage binding | – | – | baseline: targeting over control phage | selectivity ratio | 95 ± 29 |
| O=C(C[Se]C(=O)c1cccs1)Nc1cccc(C(F)(F)F)c1 | NCI60 non-small-cell lung subpanel | cell growth | – | 10 µM, 48 h, one-dose | – | mean growth percent | -88.3% |

For quick reference, copied from above:
| SMILES | tested on | assay | test system | conditions | scale | measurement | value |
| --- | --- | --- | --- | --- | --- | --- | --- |
| [Cl-].[Cl-].[Ru+2].c1ccc(-c2ccccn2)nc1.c1ccc(-c2ccccn2)nc1.c1ccc2cc3nc4c5cccnc5c5ncccc5c4nc3cc2c1 | SK-MEL-28 | cell growth or viability, resazurin | – | dark | – | EC50 | 120 µM |
| O=C(O)c1ccc(-c2nc(-c3ccccc3Cl)c3sccn23)cc1 | human CD34+ hematopoietic stem cells | megakaryocyte differentiation, flow cytometry, item: CD41a | – | 10 µM, day 7, added: TPO | baseline: control | fold change | 1.09 fold and 1.12 fold and 1.06 fold and 1.1 fold and 1.04 fold |
| CCOC(=O)C1(Cc2ccccc2)Oc2cc(F)ccc2N(Cc2ccccc2)C1=O (centres unmarked) | HEK293T | cytotoxicity, CCK-8 | – | 1.56 µM, 72 h | – | inhibition | 0.02 ± 0.34% |
